Experimental data from different studies.
Every numbered part comes from another study and shows a few of its results, in no order.

Series 1 — technique: protein-binding microarray; form: double-stranded DNA, one strand shown; medium: in vitro; concentration: 2200 nM top; setting: 60-bp whole probe; together with: salmon DNA 0.4 mg/ml; baseline: random background probes; direction: higher = stronger binding; constant ends, left off below: GCCTAGCAC … GTCTTGATTCGCTTGACGCTGCTG
Target: Interferon regulatory factor 7, full length, phosphomimetic (IRF7, Homo sapiens, UniProt Q92985, residues 1-503, S471D/S472D/S475D/S476D/S477D/S483D/S484D/S487D)
Construct (chain): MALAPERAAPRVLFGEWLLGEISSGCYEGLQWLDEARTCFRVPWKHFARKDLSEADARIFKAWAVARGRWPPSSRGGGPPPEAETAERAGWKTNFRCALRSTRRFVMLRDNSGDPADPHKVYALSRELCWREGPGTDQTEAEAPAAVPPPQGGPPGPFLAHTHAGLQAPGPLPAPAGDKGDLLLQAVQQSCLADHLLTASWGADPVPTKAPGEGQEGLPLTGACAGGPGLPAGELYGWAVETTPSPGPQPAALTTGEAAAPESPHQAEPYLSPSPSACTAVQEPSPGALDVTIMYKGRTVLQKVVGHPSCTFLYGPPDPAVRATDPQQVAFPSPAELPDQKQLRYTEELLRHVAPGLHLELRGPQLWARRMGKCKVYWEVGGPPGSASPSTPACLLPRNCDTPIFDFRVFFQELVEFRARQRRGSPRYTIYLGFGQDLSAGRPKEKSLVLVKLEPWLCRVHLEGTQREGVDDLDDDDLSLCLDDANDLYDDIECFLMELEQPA
Oligonucleotide	fitted relative affinity [z-score]
TTAGATATCAGACTGGTTTAGTGCTAG	0.0051
TCAGTTTCCCCTATTTAACTGTGCTAG	3.45
TGAGGTTTCCTTTTCCTTTAGTGCTAG	6.09
TTAGATCTCAGTCTCGAGTAGTGCTAG	0.118
TTAGGTCTCCTTCTCCTTAAGTGCTAG	1.16
TCAGGAGTCATTCTCAAACTGTGCTAG	-0.205
TTAGGATTCGACTTTCGGTTAGTGCTA	6.84
GACAGTATCGGGTATCGGGACGTGCTA	0.383
GACGGACTGGACTTTCGGCACGTGCTA	0.553
GACGGTCTCGGTTTCGGTACGTGCTAG	5.17
TTAGGTCTCGGTCTCGGGTAGTGCTAG	0.425
TTAGGTATCCTACAGCTTTAGTGCTAG	0.263
GACTGTTTCGACTATCGGGACGTGCTA	2.81
TCATTTCTCTGCTACCCTACTGTGCTA	2.81
TTGGATTTCAGACTGGATTAGTGCTAG	0.322
GACGAACAGAGTATCGAGACGTGCTAG	-0.346
GACGGACTGCATTTCCTGACGTGCTAG	0.512
TTATGACTGCTTATCCTTTAGTGCTAG	1.02
TTAGGACTTCTACTGCTTTAGTGCTAG	0.276
TTAGGTCTCCTTCTCCTGTAGTGCTAG	1.05

Series 2 — technique: RNA Bind-n-Seq; form: RNA; medium: in vitro; concentration: 365 nM; baseline: no-protein control; direction: higher = stronger binding
Target: RNA binding protein fox-1 homolog 2, RRM domain, GST-SBP tag (RBFOX2, Homo sapiens, UniProt O43251-10, residues 100-194)
Setting: natural RNA segment, single round, ends assumed
Constant ends, left off below: GGGAGUUCUACAGUCCGACGAUC … UGGAAUUCUCGGGUGCCAA
Target sequence (chain): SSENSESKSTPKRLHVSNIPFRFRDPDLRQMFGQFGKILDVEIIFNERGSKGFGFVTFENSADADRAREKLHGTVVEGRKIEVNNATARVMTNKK
Oligonucleotide	RBNS enrichment (R)
CGACUGUACAUCUGCAGUCCCUCACUCAGGAGAUGGGAGCAGGAGGAUCAGGAGUUCAAGGUCAUCCUUGGCUACAUAGGGGGUUCAAAGCCAGCCUGGGCCCAAUGAAA	0.474
AAGCUGGGCUACUCCAUGACCAGGGGCAAGAUAGGCUUCUAGACAGCUGCGUCCCGGAAACCAAGGUGGUGGGGACUCCCUGUGCCACCUCAUGCCACCCACUGGCUGGA	0.208
AUUGUAUGUUUUGCAUUCCUAGAAGUAGGUUAACUGUGUUUUUAAAUUGUUAUAACUUCACACCUUUUUGAAAUCUGCCCUACAAAAUUUGUUUGGCUUAAACGUCAAAA	0.624
UGACUUGGACACGGUAACUGUUGCAGUUUUAGACUCAGCAUUGUGACACUUCCCAAGAAGGCCAAACCUCUAACCGACAUUCCUGAAAUACGUGGCAUUAUUCUUUUUUG	0.641
CAGAAGCCUCCCUUCUGUGCACAGGAGCCAGUUUCACAGAUGGAGAAGAUGUCUCAGAUGAAGGGAGUGUCCCUGAGAUAUCAUCCUUUUCUUCUGCCUCGCCUGAAUCC	0.374
CAGGCCACUCUAGAAGCCGAGCCGUCACACCUCAGGCGUGUGCGGGGCGGGGACGGGGGGUCUCCUGGUUACAUUUUGGAUUAAACCUGUUUCCCGGUUAUGUGUAGGGA	1.06
GGGCCGGAGGUCUCGAAGCCUCAGCUUUUACUUUGUGAGCUGCAACACUCGCUUCAGCUCAGACUCAGUGGACAUCAGAGUCUCUGUCUCCGUGUCUCAGUUAUGGUCUG	0.214
UUUUUGCAAUAAUGCAGUAUGGUACAUUUUUCAAAUUUGAAUAAAGAAUACUUGAACUUGUUGUUGAUCACUUGUCCUAGAACAUCACCGACUGAUUCUAGAAAGACUAU	0.282
UUGAUGCGGGGCGGGUAAAGGGUAUUUUAACUUAGGGGUAGUUCCUGCUGUGAGUGGUUACAGCUGAUCCUCGGGAAGAACAAAGCUAAAGCUGCCUUUUGUCUGUUAUU	0.581
CUUUGUACUACUGGUCCAGCUGCCUUGGGCUCCUUUUCUAUAUUAAUAAAGAAACGAGUAAAAAUUACCGGUGGGGAUGAUGUUUAAAAUUGCUCUGAUCACUGGUGGUG	0.854
UUUACCUUGAGCACUUGCCUCCUCAGACUUUUAGACCAGUGGUUUACUGUGCCCUUUCUUCCCAUCACCUUGCUCUCUCUGGCUCUGUCUCUUCUUGCUGUCUCUCUCCU	0.852
AUGUGUAUUUCCAAUUUGGUCUUCAAUUCAAGAGAUGCUUCAUAAAACACUUAUAGCCUUAAACCAUUCAAGGGCUAAUUAAAAAAAUAGUUAUGAAAUCUUAGCCACAA	0.583

Series 3 — technique: aptamer microarray, sandwich; form: DNA with 2'F-ANA; medium: in vitro; concentration: 200 nM; together with: Cy3 exosite-II aptamer, 400 nM; direction: higher = stronger binding; oligonucleotide: GGTTGGTGTGGTTGG
Target: Prothrombin, mature alpha-thrombin (F2, Homo sapiens, UniProt P00734)
Setting: whole 15-mer aptamer, many near background
Modification	mean fluorescence intensity
2'F-ANA at 1 2 5 6 8 12 14 15	48.7 a.u.
2'F-ANA at 1 2 3 4 8 9 10 12 13 14 15	146 a.u.
2'F-ANA at 2 4 6 7 8 9 11 13 14 15	72.3 a.u.
2'F-ANA at 4 5 8 12 13	94.2 a.u.
2'F-ANA at 1 2 3 5 6 7 14	46.5 a.u.
2'F-ANA at 1 3 4 5 7 11 12 13 15	69.4 a.u.
2'F-ANA at 2 3 5 6 7 8 9 10 11 12 13 14 15	56.9 a.u.
2'F-ANA at 2 5 6 7 8 9 11 14	46.3 a.u.
2'F-ANA at 1 2 4 5 6 7 10 13	52.6 a.u.
2'F-ANA at 1 2 4 5 6 7 8 11 12 14 15	55.1 a.u.
2'F-ANA at 1 3 4 6 7 8 9 13 14 15	65.1 a.u.
2'F-ANA at 2 3 4 6 7 9 10 13	218 a.u.
2'F-ANA at 5 7 12 13 14 15	50 a.u.
2'F-ANA at 2 3 4 5 8 9 11 12 14 15	150 a.u.
2'F-ANA at 2 5 6 8 10 11 13 14 15	52 a.u.
2'F-ANA at 2 3 5 8 9 12 14	57.9 a.u.
2'F-ANA at 1 3 4 5 6 7 10 11 12 13 14 15	88.7 a.u.
2'F-ANA at 3 4 7 11 13 14 15	328 a.u.
2'F-ANA at 4 5 6 7 8 9 11 12 14	48.2 a.u.
2'F-ANA at 5 8 10 14 15	43.5 a.u.
2'F-ANA at 1 4 6 9 12 14	92.7 a.u.

Series 4 — technique: protein binding microarray; form: double-stranded DNA, one strand shown; medium: in vitro; concentration: not given; baseline: not given; direction: higher = stronger binding
Target: Histone acetyltransferase KAT6A, winged helix 2, GST fusion (KAT6A, Homo sapiens, UniProt Q92794, residues 85-181)
Setting: 8-mer, flanks averaged, mean of 2 arrays, mostly near background
Construct (chain): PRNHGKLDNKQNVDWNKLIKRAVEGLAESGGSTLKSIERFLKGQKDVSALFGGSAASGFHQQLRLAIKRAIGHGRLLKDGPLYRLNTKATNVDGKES
Oligonucleotide	E-score
ATCTTTCG	0.00633
TATCAGCA	0.0592
CAGCCATA	0.0533
CTCGGACC	0.157
ACGCAGTA	0.103
GAAATGAA	0.159
ATGGCTCC	0.0415
GTGAGGCA	-0.103
CGGTGTGA	0.103
CTGGAAGC	0.0274
CATATCGC	-0.0153
AGCCGGGC	0.0974
GAGCGAAA	0.176
CCATTTCA	-0.013
GGTCAAAC	-0.0193
ACTGGGAT	-0.0299
GAGGAGCA	-0.0101
GCCTGAGA	0.0157
ACTAAGAT	0.136
GCACCTAC	-0.0719

Series 5 — technique: RNA Bind-n-Seq; form: RNA; medium: in vitro; concentration: 1 µM; setting: whole 134-nt RNA, ends assumed; together with: 150 mM KCl; baseline: input library; direction: higher = stronger binding
Target: Ras GTPase-activating protein-binding protein 1, RRM domain (G3BP1, Homo sapiens, UniProt Q13283)
Sequence of UniProt Q13283 (whole entry, looked up): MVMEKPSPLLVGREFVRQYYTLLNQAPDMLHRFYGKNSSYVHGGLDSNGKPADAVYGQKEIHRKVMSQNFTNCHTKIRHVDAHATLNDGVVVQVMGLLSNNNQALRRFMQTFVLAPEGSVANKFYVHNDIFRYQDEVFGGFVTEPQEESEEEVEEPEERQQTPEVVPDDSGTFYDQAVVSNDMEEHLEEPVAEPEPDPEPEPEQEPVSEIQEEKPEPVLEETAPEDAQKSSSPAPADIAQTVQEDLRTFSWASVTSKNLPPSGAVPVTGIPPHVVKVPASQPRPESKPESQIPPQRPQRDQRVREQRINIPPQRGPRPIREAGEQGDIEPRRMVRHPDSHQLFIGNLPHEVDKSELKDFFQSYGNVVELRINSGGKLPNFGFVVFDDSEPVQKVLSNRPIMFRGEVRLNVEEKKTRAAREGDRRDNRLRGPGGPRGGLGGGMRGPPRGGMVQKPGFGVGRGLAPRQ
Constant ends, left off below: GGGAGUUCUACAGUCCGACGAUC … UGGAAUUCUCGGGUGUCAAGG
Oligonucleotide	log2 enrichment
AAGUCCUGUGCUACACAUCGUAUGUACCGAAUCGGGAAAAAGGGAAAAAGGGAGGGAAAGUAUUAUGUUACGCCGUUCGGAUCUGCACUU	0.979
UGGCCCUGGUGGCAUGCGGGGAGGAGGAGGUGGCCUCAUGGAUCGUGGUGGUCCCGGUGGAAUGUUCAGAGGUGGCCGUGGUGGAGACAG	0.818
ACCAUGCAGGUGGGCAUCUUUGGGAAGUGGGGCAAGGGGGGGAUAGAGAGGGGGGUAACACUUUGGGAACAGGUGGUCCCAGGUCGUUUC	1.02
AGUCCUGUGCUACACAUCGUAUGUACCGAAUCGGGUUUUUUUGGGUUUGGGUUUGGGAAAGUAUUAUGUUACGCCGUUCGGAUCUGCACU	0.266
GUCCUGUGCUACACAUCGUAUGUACCGAAUCGGGUUUUUGGGAAAAAGGGAAAAAGGGAAAGUAUUAUGUUACGCCGUUCGGAUCUGCAC	-0.118
CUGUGCUACACAUCGUAUGUACCGAAUCGGGGCCCCCCCGGCCCCCCCGGGCCCCCCCGGGGAAAGUAUUAUGUUACGCCGUUCGGAUCU	-0.667
UAGGUAAGAAAGUACUCAUUGUCUAUGCACACCAGGAACCCAAGUCUUUCAACGGAUCCUUGAAGAAUGUGGCUGUAGAUGAACUGAGCA	-0.0549
UGCGCCAACCUAGGCUUUCUUCUUCCUCUCCUCUUUAUAGGCGGAGUCGAUCUCCCAAAAGGAGAAGGUAGGCCUUCAGUCAUUUGUGAU	-0.173
CCUCAAGUCCUGUGCUACACAUCGUAUGUACCGAAUCGGGGAGGGGAGGAGGAAAGUAUUAUGUUACGCCGUUCGGAUCUGCACUUCCAG	-0.326
CAAGUCCUGUGCUACACAUCGUAUGUACCGAAUCGGGGCCCGGGGCCCGGCCCGGGAAAGUAUUAUGUUACGCCGUUCGGAUCUGCACUU	-0.981
AGUCCUGUGCUACACAUCGUAUGUACCGAAUCAAACCCAAACCCCCAAAUUUUUAAAAAAGUAUUAUGUUACGCCGUUCGGAUCUGCACU	-0.0997
GUCCUGUGCUACACAUCGUAUGUACCGAAUCGGUUUUUGGAAAAAAAGGAAAAAAAGGAAAGUAUUAUGUUACGCCGUUCGGAUCUGCAC	-0.131
UGGGAGGUGGAUUUUGUUUAUUUUUUUAGCUCAUUUCCAGGGGUGGGAAUUUUUUUUUGAUAUGUGUCAUGAAUAAAGUUGUUUUUGAAA	1.87
UUAUAAUUGAUGAUCAUCCUGAAGUAACAGUAAUUGAAGAUCCCCAGUCAAAUUUGAAUGAUGAUGGUUUUACUGAAGUGGUAUCCAAAA	-0.123

Some of these lines once more (series 3):
Modification	mean fluorescence intensity
2'F-ANA at 1 3 4 5 6 7 10 11 12 13 14 15	88.7 a.u.
2'F-ANA at 3 4 7 11 13 14 15	328 a.u.
2'F-ANA at 1 2 4 5 6 7 8 11 12 14 15	55.1 a.u.
2'F-ANA at 1 2 3 5 6 7 14	46.5 a.u.
2'F-ANA at 1 2 5 6 8 12 14 15	48.7 a.u.
2'F-ANA at 2 3 5 8 9 12 14	57.9 a.u.
2'F-ANA at 4 5 6 7 8 9 11 12 14	48.2 a.u.
2'F-ANA at 2 3 4 5 8 9 11 12 14 15	150 a.u.
2'F-ANA at 2 5 6 8 10 11 13 14 15	52 a.u.
2'F-ANA at 1 2 4 5 6 7 10 13	52.6 a.u.
2'F-ANA at 1 4 6 9 12 14	92.7 a.u.
2'F-ANA at 2 5 6 7 8 9 11 14	46.3 a.u.
